# Published values pooled from the literature.
# A part holds a random share of what one study measured. Changes are numbered by the printed parent chain.

# Sample 1
# Target: Prothrombin, mature alpha-thrombin (F2, Homo sapiens, UniProt P00734)
# Method: aptamer microarray, sandwich
# Molecule type: DNA with 2'F-ANA
# Matrix: in vitro
# Concentration: 200 nM
# Notes: whole 15-mer aptamer, many near background
# With: Cy3 exosite-II aptamer, 400 nM
# Direction: higher = stronger binding
# Oligonucleotide: GGTTGGTGTGGTTGG
Modification,mean fluorescence intensity [a.u.]
2'F-ANA at 10 11 13 14,115
2'F-ANA at 5 7 9 11 14 15,47.9
2'F-ANA at 2 3 5 7 8 11 12 15,178
2'F-ANA at 1 4 5 6 7 8 10 12 14 15,46.7
2'F-ANA at 3 5 6 11 13 14 15,56.9
2'F-ANA at 1 6 7 8 9 10 12 13,66.8
2'F-ANA at 2 5 6 8 13 14 15,66.3
2'F-ANA at 2 3 4 5 9 11 13 14,53.1

# Sample 2
# Target: Sal-like protein 4, full length isoform A (SALL4, Homo sapiens, UniProt Q9UJQ4, residues 1-1053)
# UniProt Q9UJQ4, sequence (whole entry, looked up): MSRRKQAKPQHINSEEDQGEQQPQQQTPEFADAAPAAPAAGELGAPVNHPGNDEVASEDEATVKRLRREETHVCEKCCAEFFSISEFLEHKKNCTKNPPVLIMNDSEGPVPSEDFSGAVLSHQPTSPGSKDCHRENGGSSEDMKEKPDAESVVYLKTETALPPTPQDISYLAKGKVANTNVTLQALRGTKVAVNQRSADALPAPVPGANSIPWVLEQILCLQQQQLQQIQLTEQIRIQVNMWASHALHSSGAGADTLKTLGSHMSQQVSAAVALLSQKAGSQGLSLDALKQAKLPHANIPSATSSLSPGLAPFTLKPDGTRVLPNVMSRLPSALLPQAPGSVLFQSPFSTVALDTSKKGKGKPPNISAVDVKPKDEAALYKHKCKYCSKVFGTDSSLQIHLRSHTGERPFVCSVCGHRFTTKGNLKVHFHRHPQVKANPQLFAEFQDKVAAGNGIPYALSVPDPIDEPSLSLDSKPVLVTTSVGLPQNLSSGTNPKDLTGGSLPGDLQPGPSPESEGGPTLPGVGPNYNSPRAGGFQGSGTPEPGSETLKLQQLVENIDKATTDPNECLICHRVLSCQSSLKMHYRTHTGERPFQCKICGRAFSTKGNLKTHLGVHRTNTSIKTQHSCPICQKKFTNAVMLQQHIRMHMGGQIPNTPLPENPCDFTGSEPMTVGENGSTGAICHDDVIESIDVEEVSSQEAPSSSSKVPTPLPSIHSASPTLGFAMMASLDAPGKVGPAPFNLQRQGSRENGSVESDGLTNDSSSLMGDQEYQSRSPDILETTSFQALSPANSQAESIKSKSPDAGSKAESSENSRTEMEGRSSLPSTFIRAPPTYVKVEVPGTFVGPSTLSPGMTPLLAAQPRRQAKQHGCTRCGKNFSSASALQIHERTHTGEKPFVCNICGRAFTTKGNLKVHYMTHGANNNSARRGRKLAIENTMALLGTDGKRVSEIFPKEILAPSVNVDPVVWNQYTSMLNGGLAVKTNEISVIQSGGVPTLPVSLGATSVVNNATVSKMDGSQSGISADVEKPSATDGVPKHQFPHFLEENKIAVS
# Method: universal PBM
# Molecule type: double-stranded DNA, one strand shown
# Matrix: in vitro
# Concentration: 600 nM
# Notes: 8-mer, flanks averaged, mean of replicates
# Direction: higher = stronger binding
Oligonucleotide,E-score
ATCCGTTC,0.0527
AGAACTGA,0.0482
AATTGCGG,0.158
TGGGAGAA,0.0569
CGTCGATA,0.0309
CGCTAGAC,-0.149
ATTCCCAC,0.02
ACTTTGTG,0.0635

# Further values, each from its own experiment
# P1: viral docking peptide; KGVKRKLFAEDSS; partner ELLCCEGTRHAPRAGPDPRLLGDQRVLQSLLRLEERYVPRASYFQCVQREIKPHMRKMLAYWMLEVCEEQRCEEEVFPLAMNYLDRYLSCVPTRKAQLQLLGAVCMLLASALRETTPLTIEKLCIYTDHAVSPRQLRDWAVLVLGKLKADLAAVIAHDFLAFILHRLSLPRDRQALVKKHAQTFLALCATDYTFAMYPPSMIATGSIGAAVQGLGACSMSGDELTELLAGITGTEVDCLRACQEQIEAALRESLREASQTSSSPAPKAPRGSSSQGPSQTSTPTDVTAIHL
Molecule,target,test,test system,setting,scale,endpoint,value
P1 R5A,"CCND3, cyclin fold, Cln2 fusion (human)","yeast growth competition, sequencing",yeast,weak parent motif,"reference: not given, higher = stronger binding",normalised enrichment score,0.135
TFVPIAWAAAY,"HLA class I histocompatibility antigen, A alpha chain, allele A*25:01 (Homo sapiens, UniProt P04439)",peptide-MHC binding,peptide,concentration not given,,binding,inactive

# Repeated from above (sample 1):
Modification,mean fluorescence intensity [a.u.]
2'F-ANA at 10 11 13 14,115
2'F-ANA at 5 7 9 11 14 15,47.9
2'F-ANA at 2 3 5 7 8 11 12 15,178
